# Results of several laboratories.
# Protocols differ between the studies behind these lines. ± marks the error that the study gave.
# Cell line: MCF7
SMILES,assay,conditions,IC50
CCOC(=O)/C=C1\S/C(=N\N=C\c2cccc3cc4ccccc4nc23)N(C)C1=O,"cell growth or viability, MTT",48 h,> 50 µM
CN(C)C(=S)NN=C(c1ccccn1)c1ccccn1,"cell growth or viability, MTT",48 h,0.58 µM
Clc1ccc(C(Cn2cnc3ccccc32)OCc2ccc(Br)cc2)c(Cl)c1 (stereo not drawn),"cell growth or viability, MTT",24 h,42.9 µM
Nc1ncc(-c2nc(N3CCOCC3)nc(N3CCOCC3)n2)c(C(F)F)n1,"inhibitor, In-Cell Western, item: Akt pSer473",2 h,0.0309 µM
COc1ccc(C2CC(=O)c3c(cc(O)c(CC=C(C)C)c3O)O2)cc1 (stereo not drawn),"cytotoxicity, MTT","48 h, as reported",> 100 µM
CNC(=S)NN=Cc1ccc([N+](=O)[O-])o1,"cell growth or viability, resazurin",,30.1 µM
CC(=O)[O][Pd][c]1ccccc1-n1nc(C)cc1C.CC(=O)[O][Pd][c]1ccccc1-n1nc(C)cc1C,"cell growth or viability, MTT",,16.8 µM
C=CCc1c(O)cc2c(c1O)C(=O)CC(c1ccc(O)cc1)O2 (stereo not drawn),"cytotoxicity, MTT","48 h, from log IC50",114 µM
O=C(c1ccccc1)N1CCN(CC(OCc2ccc3ccccc3c2)c2ccc(Cl)cc2Cl)CC1 (stereo not drawn),"cell growth or viability, MTT",24 h,> 50 µM
Cc1ccc2c(Br)cc(Br)c([O-])c2n1.Cc1ccc2c(Br)cc(Br)c([O-])c2n1.[Co+2].c1cnc2c(c1)ccc1cccnc12,"cell growth or viability, MTT",48 h,10 µM
CCc1ccc(/N=C2\C(=O)N(Cc3ccc([N+](=O)[O-])cc3)c3ccccc32)cc1,"cell growth or viability, MTT",48 h,8.58 µM
CCCN1C(=O)/C(=C/C(=O)OCC)S/C1=N\N=C\c1cccc2cc3ccccc3nc12,"cell growth or viability, MTT",48 h,> 50 µM
Clc1ccc(C(Cn2cnc3ccccc32)OCc2ccc3ccccc3c2)c(Cl)c1 (stereo not drawn),"cell growth or viability, MTT",24 h,37.1 µM
Cc1nc(N(C)c2ccc3c(c2)/C(=C/c2ccccc2C)C(=O)N3C)c2ccccc2n1,"cell growth or viability, MTT",,2.12 µM
O=C(O)C(CO)NCc1cc(Cl)c(OCc2cccc(-c3ccccc3)c2Br)cc1OCc1cccnc1 (stereo not drawn),"cell growth or viability, MTT",,> 10 µM
CCOC(=O)/C=C1\S/C(=N\N=C\c2cccc3cc4ccccc4nc23)N(CC(C)C)C1=O,"cell growth or viability, MTT",48 h,> 50 µM
CN(C)c1ccc(CCC(=O)N2C(=O)C3(NC(c4ccc(F)cc4)C4(C(=O)Nc5ccccc54)N3Cc3ccc(F)cc3)c3ccccc32)cc1 (stereo not drawn),"cell growth or viability, MTT",48 h,33.3 µM
O=C(CN1CCCCC1)N1CCN(CC(OCc2ccc3ccccc3c2)c2ccc(Cl)cc2Cl)CC1 (stereo not drawn),"cell growth or viability, MTT",24 h,17.6 µM
Cc1ccnc(-c2cc(C(=O)O)ccn2)c1.F[P-](F)(F)(F)(F)F.F[P-](F)(F)(F)(F)F.[Ru+2].c1ccc(-c2ccccn2)nc1.c1ccc(-c2ccccn2)nc1,cell viability,"48 h, light irradiation 2.5 min",> 100 µM
Nc1ncc(-c2nc(N3CCOCC3)nc(N3CCN(C(=O)CCC(=O)N4CCC(CC5CCN(c6cc7c(cc6F)C(=O)N(C6CCC(=O)NC6=O)C7=O)CC5)CC4)CC3)n2)c(C(F)F)n1 (stereo not drawn),"inhibitor, In-Cell Western, item: Akt pSer473",2 h,0.0089 µM
Clc1ccc(COC(Cn2cnc3ccccc32)c2ccc(Cl)cc2Cl)cc1 (stereo not drawn),"cell growth or viability, MTT",24 h,47.2 µM
NC(=O)c1ccc(-c2ccccc2Cl)c2c3c([nH]c12)CC[C@H](N)C3,cell proliferation,96 h,0.0288 µM
C[n+]1c(/C=C/c2ccc(N(c3ccccc3)c3ccccc3)cc2)cc(/C=C2\Sc3ccccc3N2CCCN2CCCC2)c2ccccc21,"cell growth or viability, MTT",36 h,5.72 µM
Cc1c(COc2cc(OCc3cccc(C#N)c3)c(CN3CCCC[C@@H]3C(=O)O)cc2Cl)cccc1-c1cccc(OCCCCCCC(=O)NO)c1,"cell growth or viability, CCK-8",48 h,19.3 µM
CN1CCC(N[C@@H]2CCc3[nH]c4c(C(N)=O)ccc(-c5ccccc5Cl)c4c3C2)CC1,cell proliferation,96 h,0.0183 µM
C#CCNC(=O)[C@@]1(C)C(=O)CC[C@]2(C)[C@H]3C(=O)C=C4[C@@H]5[C@@H](C)[C@H](C)CC[C@]5(C)CC[C@@]4(C)[C@]3(C)CC[C@@H]12,"cell growth or viability, MTT",24 h,128 µM
Cc1c(COc2cc(OCc3cccc(C#N)c3)c(CNC(CO)CO)cc2Cl)cccc1-c1cccc(OCCCCCCC(=O)NO)c1,"cell growth or viability, CCK-8",48 h,17.9 µM
CCC(=CCc1c(O)cc2c(c1O)C(=O)CC(c1ccc(OC)c(O)c1)O2)CC (stereo not drawn),"cytotoxicity, MTT","48 h, as reported",18.3 ± 1.2 µM
O=C(CCc1ccco1)N1C(=O)C2(NC(c3ccc(F)cc3)C3(C(=O)Nc4ccccc43)N2Cc2ccc(F)cc2)c2ccccc21 (stereo not drawn),"cell growth or viability, MTT",48 h,50.2 µM
Cc1ccnc(-c2cc(C)ccn2)c1,"cell growth or viability, MTT",48 h,> 50 µM
C[C@@H]1CC[C@@H]([C@](O)(COCc2ccccc2)Cn2cnc3ccccc32)[C@H](OCc2ccccc2)C1,"cell growth or viability, MTT",72 h,5.68 µM
COc1ccnc(-c2cc(OC)ccn2)c1.Cc1ccc2c(Cl)cc(Cl)c([O-])c2n1.Cc1ccc2c(Cl)cc(Cl)c([O-])c2n1.[Co+2],"cell growth or viability, MTT",48 h,9.01 µM
Cc1nc(Nc2ccc3c(c2)/C(=C/c2ccccc2Cl)C(=O)N3C)c2ccccc2n1,"cell growth or viability, MTT",,6.91 µM
C[C@@H]1CC[C@@H]([C@@](O)(CNCc2ccc(F)cc2)COCc2ccccc2)[C@H](OCc2ccccc2)C1,"cell growth or viability, MTT",72 h,2.56 µM
[Co+2].[O-]c1c(I)cc(I)c2cccnc12.[O-]c1c(I)cc(I)c2cccnc12.c1cnc2c(c1)ccc1cccnc12,"cell growth or viability, MTT",48 h,27 µM
Nc1ncc(-c2nc(N3CCOCC3)nc(N3CCN(C(=O)CCC(=O)NCCOCCOCCOCC(=O)Nc4cccc5c4C(=O)N(C4CCC(=O)NC4=O)C5=O)CC3)n2)c(C(F)F)n1 (stereo not drawn),"inhibitor, In-Cell Western, item: Akt pSer473",2 h,0.41 µM
CCc1occc(=O)c1[O-].[Cl-].[W+4].c1cc[cH-]c1.c1cc[cH-]c1,"cell growth or viability, MTT",,190 µM
CCNC(NN=Cc1ccc([N+](=O)[O-])o1)=[S+][Au-][Cl],"cell growth or viability, resazurin",,35.1 µM
Cc1nc(N(C)c2ccc3c(c2)/C(=C/c2cn(C)c4ccccc24)C(=O)N3C)c2ccccc2n1,"cell growth or viability, MTT",,1 µM
O=C1CS/C(=N\N=C\c2cccc3cc4ccccc4nc23)N1c1ccc([N+](=O)[O-])cc1,"cell growth or viability, MTT",48 h,> 50 µM
CCCCN(CCCC)CC(=O)N1CCN(CC(OCc2ccc3ccccc3c2)c2ccc(Cl)cc2Cl)CC1 (stereo not drawn),"cell growth or viability, MTT",24 h,> 50 µM
c1ccc2nc3c4cccnc4c4ncccc4c3nc2c1,"cell growth or viability, MTT",48 h,> 50 µM
O=C1Nc2ccccc2/C1=N/c1ccc(Cl)cc1Br,"cell growth or viability, MTT",48 h,1.61 µM
Nc1ncc(-c2nc(N3CCOCC3)nc(N3CCN(C(=O)CCC(=O)NCCCCCCCNc4cccc5c4C(=O)N(C4CCC(=O)NC4=O)C5=O)CC3)n2)c(C(F)F)n1 (stereo not drawn),"inhibitor, In-Cell Western, item: Akt pSer473",2 h,0.0441 µM
COc1ccccc1CNC[C@](O)(COCc1ccccc1)[C@@H]1CC[C@@H](C)C[C@H]1OCc1ccccc1,"cell growth or viability, MTT",72 h,1.78 µM
Cc1c(COc2cc(OCc3cccc(C#N)c3)c(CNC(C)(CO)CO)cc2Cl)cccc1-c1cccc(OCCCCCC(=O)NO)c1,"cell growth or viability, CCK-8",48 h,> 20 µM
Cc1ccc(-c2ccc(C)cn2)nc1.[Co+2].[O-]c1c(I)cc(Cl)c2cccnc12.[O-]c1c(I)cc(Cl)c2cccnc12,"cell growth or viability, MTT",48 h,15.1 µM
COc1cc(C=O)cc(OS(=O)(=O)Oc2ccc3c(c2)CC[C@@H]2[C@@H]3CC[C@]3(C)C(=O)CC[C@@H]23)c1OC,,72 h,14.3 µM

# For quick reference, copied from above:
SMILES,assay,conditions,IC50
Cc1c(COc2cc(OCc3cccc(C#N)c3)c(CN3CCCC[C@@H]3C(=O)O)cc2Cl)cccc1-c1cccc(OCCCCCCC(=O)NO)c1,"cell growth or viability, CCK-8",48 h,19.3 µM
CN1CCC(N[C@@H]2CCc3[nH]c4c(C(N)=O)ccc(-c5ccccc5Cl)c4c3C2)CC1,cell proliferation,96 h,0.0183 µM
C#CCNC(=O)[C@@]1(C)C(=O)CC[C@]2(C)[C@H]3C(=O)C=C4[C@@H]5[C@@H](C)[C@H](C)CC[C@]5(C)CC[C@@]4(C)[C@]3(C)CC[C@@H]12,"cell growth or viability, MTT",24 h,128 µM
